Measurements gathered from unrelated publications.
Numbered parts are unrelated; each lists some results of a single study.

Study 1
Target: RNA binding protein fox-1 homolog 2, RRM domain, GST-SBP tag (RBFOX2, Homo sapiens, UniProt O43251-10, residues 100-194)
Technique: RNA Bind-n-Seq
Form: RNA
Medium: in vitro
Tested at: 365 nM
Setting: natural RNA segment, single round, ends assumed
Reference: no-protein control
Direction: higher = stronger binding
Endpoint: RBNS enrichment (R)
Construct (chain): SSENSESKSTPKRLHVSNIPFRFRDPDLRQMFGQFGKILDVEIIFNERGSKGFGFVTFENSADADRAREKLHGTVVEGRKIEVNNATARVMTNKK
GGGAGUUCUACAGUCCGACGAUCAACUCGACAGAAGAGUGAACACCACUUUCUAAAGAGGCUGCCUGCACCCCCUCCCUUUCCCUUAACUCUACUUUUACAUCCCCAAACCACCUUUGUCAUCAGCUUUUCCUUGGAAUUCUCGGGUGCCAA: 1.09
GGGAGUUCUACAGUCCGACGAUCCUCAUGAUCAUAUCAUGAGAAAACCGCCUUUUCAUAUUUAUUUUUCUAACUGAUCACAUACGCAGGAGUGGCCAUGGUCGAGAGGGCCUGACACACUUGGCCCUCGAUGUUGGAAUUCUCGGGUGCCAA: 0.212
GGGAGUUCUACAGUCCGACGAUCCAAUCACUAUUCUUAAGCACUUUGAAAAUAUUUCUAUGUAAAUUAUUGUAAACUUUUUCAAUGGUUGGGACAAUGGCAAUAGGACAAAACGGGUUACUAAGAUGAAAUUGUGGAAUUCUCGGGUGCCAA: 0.411
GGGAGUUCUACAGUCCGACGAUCCAGUUAGCACUGUCCUCCUGGACCAUGCUGAGGGUUGGGCCUCUCCCUCAGAGUCCUUUCUCACUGUAGUUCUGUGUGCCUGUUCCCUUCAUGCCUGAGUCAGGAAUACAUGGAAUUCUCGGGUGCCAA: 0.232
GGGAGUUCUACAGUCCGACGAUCAAUAGCUCUUGUAAAAGGUCACAAUAACUCUAUGCACCUGAUACUGCAGUGGUUCCUAGGCCAUUCUUCAUCUGCUCUGGACAUCUCAGUCAUACCCAAUGCUCAGUGGAUGGAAUUCUCGGGUGCCAA: 0.487
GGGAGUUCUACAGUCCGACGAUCUCAAGAACAAAUCAUUGGCCCGUUAUAGCAAAUAGUUGCUUAAGUAGCAGUUGUCAUAGACUAAUCAUAAAAUAUUUUGCACAAAAUUUCAAUGUUGAACUUGCACUUACUGGAAUUCUCGGGUGCCAA: 0.71
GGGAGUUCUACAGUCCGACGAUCGCGUCUAAAAGUAUUGCACACAAAAUCAACUUUUUACUCCAAUUUCCUCCAACUCCAAAACCCAAAGUGUCCGUGCUGUGUCCCUGUGCUUCACUGGGUUUCUCAACCGUUGGAAUUCUCGGGUGCCAA: 0.705
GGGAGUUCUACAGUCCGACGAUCUUUUACUUUUUAUUACAUAAAAAUAUUAAAAAAUAAAUAAAAAAAAUAAAAUUUUAAACUAACUUAACCUGCCUGGAGUUUCCUCCUUGGAGACUAGAGUGGGGUGACAGUGGAAUUCUCGGGUGCCAA: 1.05

Study 2
Target: PABPC1L2, full length, GST fusion (mouse, UniProt A0ABA7IW68)
Technique: RNAcompete
Form: RNA
Medium: in vitro
Tested at: 20 nM
Setting: 7-mer, probes averaged, single round
Reference: mean of 7-mers
Direction: higher = stronger binding
Endpoint: 7-mer Z-score
Construct (chain): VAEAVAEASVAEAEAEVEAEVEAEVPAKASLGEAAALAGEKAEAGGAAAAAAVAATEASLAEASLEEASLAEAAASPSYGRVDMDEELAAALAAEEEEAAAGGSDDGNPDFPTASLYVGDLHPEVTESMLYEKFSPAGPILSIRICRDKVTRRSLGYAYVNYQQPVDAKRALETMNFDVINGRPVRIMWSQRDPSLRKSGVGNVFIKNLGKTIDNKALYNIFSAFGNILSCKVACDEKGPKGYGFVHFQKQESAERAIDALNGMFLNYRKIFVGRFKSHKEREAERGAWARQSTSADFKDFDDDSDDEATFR
CGCCUUG: -0.382
ACAGCGC: -0.0264
AGGCCAA: 0.184
UGAAUAU: -0.112
AACUCUU: -0.28
CAAUCGA: -0.0264
UACGGCC: -0.155
AUGCAUC: -0.2
GAAUGUC: -0.19
UAUUCUG: -0.342
AUGUGUA: -0.273
AAAGAAU: 2.03
AGUGACA: 0.191
UCAAAUG: -0.18
UGGCAGA: 0.253
UCAUGGU: -0.151
AGCACGG: 0.066
AAUGCUA: 0.037
CAUCAUG: -0.264
UAAAGAC: 1.09
UAGUCGU: -0.391
CGGAGGU: 0.111
AGCAACU: -0.0881
UAUUCCC: -0.494
UUUGUUG: -0.498

Study 3
Target: Sal-like protein 4, full length isoform B (SALL4, Homo sapiens, UniProt Q9UJQ4-2, residues 1-616)
Technique: universal PBM
Form: double-stranded DNA, one strand shown
Medium: in vitro
Tested at: not given
Setting: 8-mer, flanks averaged, mean of replicates
Direction: higher = stronger binding
Endpoint: E-score
Target sequence (chain): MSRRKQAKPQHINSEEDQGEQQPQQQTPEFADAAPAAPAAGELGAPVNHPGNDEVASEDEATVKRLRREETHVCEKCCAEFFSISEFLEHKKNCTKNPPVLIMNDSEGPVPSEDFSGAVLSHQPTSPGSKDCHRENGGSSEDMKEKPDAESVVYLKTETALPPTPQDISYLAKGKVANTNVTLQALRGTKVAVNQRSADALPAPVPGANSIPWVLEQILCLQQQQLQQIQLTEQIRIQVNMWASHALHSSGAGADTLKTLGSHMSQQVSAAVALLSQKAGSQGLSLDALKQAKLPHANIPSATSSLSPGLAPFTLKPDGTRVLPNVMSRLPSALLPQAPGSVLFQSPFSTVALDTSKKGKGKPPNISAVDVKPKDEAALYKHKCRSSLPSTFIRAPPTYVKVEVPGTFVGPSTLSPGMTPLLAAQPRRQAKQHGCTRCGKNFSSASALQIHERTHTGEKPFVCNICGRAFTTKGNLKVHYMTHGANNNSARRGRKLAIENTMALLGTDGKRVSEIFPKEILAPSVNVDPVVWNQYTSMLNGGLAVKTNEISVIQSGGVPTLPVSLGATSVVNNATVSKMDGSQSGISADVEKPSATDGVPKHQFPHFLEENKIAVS
AACGGTGA: -0.133
CGCCTACC: -0.163
ACCCTAGG: -0.107
CCTGCTTA: -0.00325
CTGTAGGC: -0.0476
CACCTCTC: -0.111
AGAGGTGC: -0.226
ATAAAATC: 0.3
AAAGATAG: 0.142
GGTTTCAC: -0.0393
GACGAATC: 0.0809
GCGGCAAC: -0.245
ACTGGTTG: -0.138
ACGGCCAT: -0.167
ACACTGAG: -0.166
ATAACAAA: 0.334
CCCGTCGA: -0.187
CGTTTGAC: 0.0001
ACCCACTG: -0.181
CCATAAAA: 0.271
CTTAACAA: 0.252
GTGGTAGA: -0.175
GGGTGCAA: -0.198
AAGTATCC: -0.0192
ACAACCCA: -0.0429

Study 4
Target: Histone acetyltransferase KAT6A, winged helix 1, GST fusion (KAT6A, Homo sapiens, UniProt Q92794, residues 1-85)
Technique: protein binding microarray
Form: double-stranded DNA, one strand shown
Medium: in vitro
Tested at: not given
Setting: 8-mer, flanks averaged, mean of 2 arrays, mostly near background
Reference: not given
Direction: higher = stronger binding
Endpoint: E-score
Target sequence (chain): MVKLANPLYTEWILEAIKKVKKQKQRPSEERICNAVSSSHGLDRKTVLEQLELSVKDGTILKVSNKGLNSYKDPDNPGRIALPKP
CATCCATA: -0.0607
CTGGAAAC: -0.0867
GTACTTAA: -0.0839
ATACTCGC: 0.163
ACATCCAC: -0.197
CAGTGGTC: -0.127
TAAAAACA: -0.0269
CAGATAAC: -0.114
ACTCATCA: -0.0863
TCGCCGAA: 0.154
ACACAACA: -0.00198
AGCGACAC: -0.0648
GACTGCTA: -0.181
AATACCCT: 0.0284
AGACAACA: -0.211
CTGACTGA: -0.142
AGAAGCCT: -0.0878
CTGACCAC: -0.307

Study 5
Target: Interferon regulatory factor 7, full length, phosphomimetic (IRF7, Homo sapiens, UniProt Q92985, residues 1-503, S101K/S471D/S472D/S475D/S476D/S477D/S483D/S484D/S487D)
Sequence of UniProt Q92985 (whole entry, unmodified, looked up): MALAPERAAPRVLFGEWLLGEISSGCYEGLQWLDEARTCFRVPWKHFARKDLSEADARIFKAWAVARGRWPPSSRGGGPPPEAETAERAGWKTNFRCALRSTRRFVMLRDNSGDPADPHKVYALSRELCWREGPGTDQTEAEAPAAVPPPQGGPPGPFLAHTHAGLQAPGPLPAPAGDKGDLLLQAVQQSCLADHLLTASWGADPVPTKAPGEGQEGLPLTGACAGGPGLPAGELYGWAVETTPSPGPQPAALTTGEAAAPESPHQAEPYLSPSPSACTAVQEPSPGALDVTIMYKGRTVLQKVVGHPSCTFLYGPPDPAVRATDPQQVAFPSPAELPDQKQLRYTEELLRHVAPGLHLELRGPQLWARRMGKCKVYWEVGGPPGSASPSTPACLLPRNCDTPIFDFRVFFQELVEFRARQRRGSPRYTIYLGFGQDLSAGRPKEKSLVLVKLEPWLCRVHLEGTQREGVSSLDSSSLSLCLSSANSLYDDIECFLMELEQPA
Technique: protein-binding microarray
Form: double-stranded DNA, one strand shown
Medium: in vitro
Tested at: 250 nM
Setting: 60-bp whole probe
With: salmon DNA 0.4 mg/ml
Reference: random background probes
Direction: higher = stronger binding
Endpoint: log fluorescence
All sequences stand within: GCCTAGCAC … GTCTTGATTCGCTTGACGCTGCTG
GACGGTCGCGGTTTCGGGACGTGCTAG: 4.56 z-score
GAAGATTTCAGACTGGAGACGTGCTAG: -0.212 z-score
GGCGGTATCGACTATCGGGACGTGCTA: 0.187 z-score
GACGGGTTCGACTATCGGGACGTGCTA: 0.209 z-score
GACGGTCTCGGTATCGAGACGTGCTAG: 1.89 z-score
TCAGGTCTCTAACTCAAACTGTGCTAG: 0.37 z-score
GACGGTTTCGGTCGCGGGACGTGCTAG: 3.73 z-score
TTAGATTTCAGACTGGCTTAGTGCTAG: 0.0602 z-score
GACGAACTAGGGTTTCGAGACGTGCTA: 2.1 z-score
GACGGACTGGGGTTTCGGGAGGTGCTA: 0.233 z-score
CAGGAAATCAACTTTTTTTAAGTGCTA: -0.256 z-score
TCATGTTTGGTTCTGATACTGTGCTAG: 0.676 z-score
GGCGGACTGGGTTTCGGGACGTGCTAG: 1.57 z-score
GACGGTATCGGTCCCGGGACGTGCTAG: 0.204 z-score
TCACTTCTCTTTTTGCTACTGTGCTAG: 2.1 z-score
TTAAGACTGGGGTATCGGTTAGTGCTA: -0.00674 z-score
GTAGGACTGGGGACTGGGTTAGTGCTA: -0.521 z-score
GACGATCTCAGACAGGAGACGTGCTAG: -0.323 z-score
GACGGACTGTTTTTCCTGACGTGCTAG: 0.252 z-score

For quick reference, copied from above (study 2):
CGCCUUG: -0.382
ACAGCGC: -0.0264
AGGCCAA: 0.184
UGAAUAU: -0.112
AACUCUU: -0.28
CAAUCGA: -0.0264
UACGGCC: -0.155
AUGCAUC: -0.2
GAAUGUC: -0.19
UAUUCUG: -0.342
AUGUGUA: -0.273
AAAGAAU: 2.03
AGUGACA: 0.191
